Results collected from several papers.
Lines come from different studies, so protocols differ. Values joined by “and” are separate records of one study, mostly repeats; a detail may differ. In brackets after ≈: the same amount, converted by molar mass.

Compound	organism	assay	system	setting	scale	endpoint	result
Clc1ccc(Cn2cc(-c3ccccc3)[n+]3c2CCC3)cc1Cl.[Cl-]	Trypanosoma cruzi	reporter mRNA translation, inhibitor, item: Renilla luciferase mRNA	cell-free extract	concentration not given, test 2	relative to: positive over negative control	translation activity	100% and 128%
COc1ccc(CCNC2=CC3=[N+](C)CCc4c[nH]c(c43)C2=O)cc1	Saccharomyces cerevisiae	cell growth, liquid culture	BY4741	100 µM, 24 h	–	inhibition	92.3%
CN1C=C/C(=C\c2cc[n+](C)c3ccccc23)c2ccccc21	Trypanosoma cruzi	reporter mRNA translation, inhibitor, item: capped polyadenylated Renilla luciferase mRNA	cell-free extract	concentration not given	relative to: control RNA	relative translation	92.4%
CC1=NN(c2cccc(F)c2)C(=O)/C1=N\Nc1ccc(S(N)(=O)=O)cc1	Saccharomyces cerevisiae	–	–	500 µg/mL	–	glucose uptake	39.8%
O=C1C(NCCc2cc(Br)c(O)c(Br)c2)=CC2=NCCc3c[nH]c1c32	Saccharomyces cerevisiae	cell growth, liquid culture	BY4741	100 µM, 24 h	–	inhibition	66%
O=C(c1ccc(Cl)c([N+](=O)[O-])c1)N1CCN(c2ccccc2F)CC1	Saccharomyces cerevisiae	endocytic recycling	wild type	20 µM, 2 h, 30 °C	relative to: cells	cells with PM GFP-Snc1	5%
COc1c(Br)cc(CCNC2=CC3=NCCc4c[nH]c(c43)C2=O)cc1Br	Saccharomyces cerevisiae	cell growth, liquid culture	BY4741	100 µM, 24 h	–	inhibition	20.1%
CC1=NN(c2ccccc2F)C(=O)/C1=N\Nc1ccc(S(N)(=O)=O)cc1	Saccharomyces cerevisiae	–	–	100 µg/mL	–	glucose uptake	43.2%
O=C(c1ccc(Cl)c([N+](=O)[O-])c1)N1CCN(c2ccc(F)cc2)CC1	Saccharomyces cerevisiae	endocytic recycling	wild type	20 µM, 2 h, 30 °C	relative to: cells	cells with PM GFP-Snc1	4%
COc1ccc(NC(=O)COc2cccc(OCC(C)C)c2)cc1	Saccharomyces cerevisiae	microbial growth	–	–	–	MIC	1 µg/mL (≈ 3.04 µM)
COc1ccccc1N1CCN(C(=O)c2ccc(Cl)c([N+](=O)[O-])c2)CC1	Saccharomyces cerevisiae	growth	ho∆/HO diploid control	–	–	IC50	> 100 µM
CCCC(C)Oc1cccc(NC(=O)c2cccnc2)c1 (centres unmarked)	Saccharomyces cerevisiae	microbial growth	–	–	–	MIC	~16 µg/mL (≈ 56.3 µM)
O=C(c1cccc(Br)c1)N1CCN(c2ccc(F)cc2)CC1	Saccharomyces cerevisiae	microbial growth	–	–	–	IC50	> 20 µM
COC1=CC2=NCCc3c[nH]c(c32)C1=O	Saccharomyces cerevisiae	cell growth, liquid culture	BY4741	100 µM, 24 h	–	inhibition	17.9%

For quick reference, copied from above:
Compound	organism	assay	system	setting	scale	endpoint	result
CC1=NN(c2cccc(F)c2)C(=O)/C1=N\Nc1ccc(S(N)(=O)=O)cc1	Saccharomyces cerevisiae	–	–	500 µg/mL	–	glucose uptake	39.8%
